Results collected from several papers.
Parts stem from different laboratories: compare values within a part only.

Study 1
Target: Cyclin-dependent kinase 3, with cyclin E (CDK3, Homo sapiens, UniProt Q00526)
Sequence of UniProt Q00526 (whole entry, looked up): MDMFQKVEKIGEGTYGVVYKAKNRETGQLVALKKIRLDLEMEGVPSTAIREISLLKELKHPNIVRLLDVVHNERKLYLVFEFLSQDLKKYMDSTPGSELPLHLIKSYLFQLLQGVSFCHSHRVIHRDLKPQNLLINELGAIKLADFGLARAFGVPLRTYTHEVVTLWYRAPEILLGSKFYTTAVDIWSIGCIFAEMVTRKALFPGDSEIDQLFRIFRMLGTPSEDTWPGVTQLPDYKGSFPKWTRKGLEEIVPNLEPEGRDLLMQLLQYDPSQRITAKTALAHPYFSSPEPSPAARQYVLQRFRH
Observed: enzyme activity
Mode: inhibitor
Concentration: 0.5 µM
Relative to: control
SMILES | remaining activity
N#CC(=C(N)Sc1ccc(N)cc1)c1ccccc1C(F)(F)F | 105%
Nc1ncnc2c1cnn2-c1ccccc1 | 96.2%
CCCC(=O)Oc1ccc2[nH]c(C(=O)c3cc4ccccc4[nH]3)cc2c1 | 88.2%
Cc1ccc(NC2=CC(=O)c3sc(C)nc3C2=O)cc1 | 88.5%
CC[n+]1c(/C=C/N(C)c2ccccc2)n(-c2ccccc2)c2ccc(-c3nc4ccccc4s3)cc21 | 92.2%
COc1ccc(S(=O)(=O)N(CCO)c2ccccc2CN(C)CC=Cc2ccc(Cl)cc2)cc1 | 103%
O=S(=O)(NCCNC/C=C/c1ccc(Br)cc1)c1cccc2cnccc12 | 77.3%
Fc1ccc(-c2nc3n(c2-c2ccncc2)CCS3)cc1 | 97%
NC(=O)c1ccc(N(C(N)=O)c2c(F)cccc2F)nc1-c1ccc(F)cc1F | 94.7%
Cc1cncc2cccc(S(=O)(=O)N3CCCN(C(=O)CN)C[C@@H]3C)c12 | 98%
Nc1nccc(-c2c(-c3ccc(F)cc3)ncn2C2CCNCC2)n1 | 95.5%
CC#CC(=O)Nc1cc2c(Nc3ccc(F)c(Cl)c3)ncnc2cn1 | 96.8%
Cc1cc(Nc2nc(-c3ccccc3)nc3ccccc23)n[nH]1 | 85%
Oc1ccc(Nc2nc(-c3ccc(Cl)cc3)cs2)cc1 | 99%
O=C1Cc2c([nH]c3ccc([N+](=O)[O-])cc23)-c2ccccc2N1 | 56.8%
CSc1nc(-c2ccnc(N[C@@H](C)c3ccccc3)c2)c(-c2ccc(F)cc2)[nH]1 (racemic) | 85.3%
CCc1[nH]c(-c2ccc(OC)cc2)nc1-c1ccncc1 | 97.9%
CC(C)(C)n1nc(Cc2cccc3ccccc23)c2c(N)ncnc21 | 87.8%
Nc1nc(Nc2ccc(S(N)(=O)=O)cc2)nn1C(=O)c1c(F)cccc1F | 32.4%
O=C1NC(=O)C(c2c[nH]c3ccccc23)=C1c1c[nH]c2ccccc12 | 91.5%
CC(=O)c1ccc(N2CCOCC2)cc1O | 102%
COc1cc(Nc2c(C#N)cnc3cc(OCCCN4CCN(C)CC4)c(OC)cc23)c(Cl)cc1Cl | 91.9%

Study 2
Compound: COc1cc(C(=O)N2CCC(N3CCN(C)CC3)CC2)ccc1Nc1ncc2c(n1)N(C)c1ccccc1C(=O)N2C
Technique: KINOMEscan
Concentration: 10 µM
Reading: lower = stronger binding
target | binding (% of control) [%]
MINK | 77
ABL1(T315I)-phosphorylated | 58
ABL1(F317L)-nonphosphorylated | 14
ERK1 | 100
S6K1 | 100
PKAC-alpha | 100
MRCKB | 100
ABL1-nonphosphorylated | 100
ABL1(M351T)-phosphorylated | 94
FLT3(ITD) | 100
ABL1-phosphorylated | 82
p38-delta | 72
BRK | 58

Study 3
Cell line: normal-adjacent organoid sample D
Technique: CellTiter-Glo
Concentration: 1 µM
Setting: replicate mean
Relative to: DMSO
Structure (SMILES) | viability [%]
Nc1nc(NCc2ccccc2)nc(-c2cccc(CO)c2)n1 | 135
N#CC1(c2ccccn2)CCN(Cc2cc(C(=O)N3CCCC3)c(=O)n3ccccc23)CC1 | 110
CNc1nc(-c2ccc3c(N)n[nH]c3c2)cc(N2C[C@@H](C(=O)NC3CCCCC3)CC[C@H]2C)n1 | 74.3
Nc1nc(NCc2ccccc2)nc(-c2ccccc2CO)n1 | 114
Cc1c(N2CCCC2)nc2ccc(Br)cc2c1C(=O)NC[C@H](CCC(=O)O)c1ccccc1Cl | 93.2
O=C(NNS(=O)(=O)c1ccccc1F)c1cc(F)cc(-c2ccccn2)c1 | 89.5
CN(C)C(=O)Cn1cc(-c2ccc(-c3cncc4ccccc34)cc2)cn1 | 127
O=C1c2ccc(Nc3ccc(F)cc3F)cc2CCc2ccc(OC[C@H](O)CO)cc21 | 119
O=C(NNS(=O)(=O)c1ccccc1)c1cc(-c2ccnnc2)ccc1F | 110
CNC(=O)c1ccccc1Nc1cc(Nc2ccc(N3CCOCC3)cc2OC)ncc1C(F)(F)F | 26.6
CNC(=O)c1cc(C(=O)N[C@H]2[C@@H]3COC[C@@H]32)cc2c1O[C@@H](CF)[C@@H]2c1ccccc1 | 97.5
CN(C(=O)c1ccccc1)c1cc(N(C)c2ccc3c(c2)CCc2ccc(C(=O)NCCN4CCOCC4)cc2C3=O)ccc1F | 83.8
CN(C)[C@@H]1CCN(c2cc(-c3ccccc3)nc3ccnn23)C1 | 115
Cc1ccccc1Oc1cc(-n2c(=O)cc(C(F)(F)F)[nH]c2=O)c2ccccc2c1Cl | 122
Cc1c(N2CCNCC2)nc2ccc(Br)cc2c1C(=O)NC[C@H](CCC(=O)O)c1ccccc1Cl | 88.6
O=C(NCCN1CCOCC1)c1ccc2c(c1)C(=O)c1ccc(Nc3ccc(F)c(NC(=O)c4ccccc4)c3)cc1CC2 | 85
Cn1c(-c2csc(C3CCN(Cc4nc5ncccc5[nH]4)CC3)n2)nc2ccccc21 | 88.8
c1ccc2oc(-c3csc(C4CCN(Cc5nc6ncccc6[nH]5)CC4)n3)cc2c1 | 39.3
N#CC1(c2ccccn2)CCN(Cc2cc(C(=O)O)c(=O)n3ccccc23)CC1 | 104
O=C(O)c1ccc(-c2c[nH]c3ncc(-c4ccccc4)cc23)cc1C1CCCC1 | 116
CC(=O)Nc1c(F)cc(C(=O)N[C@H]2CC[C@H](O)CC2)cc1O[C@@H](C)c1ccccc1 | 105

Study 4
Organism: Plasmodium berghei
Mode: inhibitor
Cell line: Huh-7
Strain: GFP-expressing sporozoites, liver stage
Concentration: 10 µM
Time: 24 h
Relative to: untreated control
Compound | infection rate
Cc1onc(-c2ccccc2Cl)c1C(=O)N[C@@H]1C(=O)N2[C@@H]1SC(C)(C)[C@@H]2C(=O)O | 108%
C[C@@H]1C[C@H]2[C@@H]3CCC4=CC(=O)C=C[C@]4(C)[C@@]3(F)[C@@H](O)C[C@]2(C)[C@@]1(O)C(=O)CO | 103%
CN(C)CCOc1ccc(/C(=C(/CCCl)c2ccccc2)c2ccccc2)cc1 | 2.88%
CC(=O)OCC(=O)[C@@]1(O)[C@H](C)C[C@H]2[C@@H]3CCC4=CC(=O)C=C[C@]4(C)[C@@]3(F)[C@@H](O)C[C@@]21C | 102%
COc1ccc([C@@H]2Sc3ccccc3N(CCN(C)C)C(=O)[C@@H]2OC(C)=O)cc1 | 75.6%
Cc1c(N(C)CS(=O)(=O)O)c(=O)n(-c2ccccc2)n1C | 116%
CC1(C)OC(=O)NC1=O | 99.1%
Nc1ccn([C@@H]2O[C@H](CO)[C@@H](O)[C@@H]2O)c(=O)n1 | 73.2%
CCC(=O)OCC(=O)[C@@]1(OC(=O)CC)[C@@H](C)C[C@H]2[C@@H]3CCC4=CC(=O)C=C[C@]4(C)[C@@]3(Cl)[C@@H](O)C[C@@]21C | 93.7%
N[C@@H](C(=O)N[C@@H]1C(=O)N2C(C(=O)O)=C(Cl)CS[C@H]12)c1ccccc1 | 110%
Cn1c(=O)c2c(ncn2CC(O)CO)n(C)c1=O (centres unmarked) | 107%
CC1=C(C(=O)O)N2C(=O)[C@@H](NC(=O)[C@H](N)c3ccc(O)cc3)[C@H]2SC1 | 101%

Excerpt of the above (study 4):
Compound | infection rate
C[C@@H]1C[C@H]2[C@@H]3CCC4=CC(=O)C=C[C@]4(C)[C@@]3(F)[C@@H](O)C[C@]2(C)[C@@]1(O)C(=O)CO | 103%
CN(C)CCOc1ccc(/C(=C(/CCCl)c2ccccc2)c2ccccc2)cc1 | 2.88%
CC(=O)OCC(=O)[C@@]1(O)[C@H](C)C[C@H]2[C@@H]3CCC4=CC(=O)C=C[C@]4(C)[C@@]3(F)[C@@H](O)C[C@@]21C | 102%
COc1ccc([C@@H]2Sc3ccccc3N(CCN(C)C)C(=O)[C@@H]2OC(C)=O)cc1 | 75.6%
Cc1c(N(C)CS(=O)(=O)O)c(=O)n(-c2ccccc2)n1C | 116%
CC1(C)OC(=O)NC1=O | 99.1%
Nc1ccn([C@@H]2O[C@H](CO)[C@@H](O)[C@@H]2O)c(=O)n1 | 73.2%
CCC(=O)OCC(=O)[C@@]1(OC(=O)CC)[C@@H](C)C[C@H]2[C@@H]3CCC4=CC(=O)C=C[C@]4(C)[C@@]3(Cl)[C@@H](O)C[C@@]21C | 93.7%
N[C@@H](C(=O)N[C@@H]1C(=O)N2C(C(=O)O)=C(Cl)CS[C@H]12)c1ccccc1 | 110%
Cn1c(=O)c2c(ncn2CC(O)CO)n(C)c1=O (centres unmarked) | 107%
